Experimental data pooled from the literature.
Lines come from different studies, so protocols differ. Several values in a cell are separate wells, animals, samples, runs or records.
Target: Protein kinase C eta type (PRKCH, Homo sapiens, UniProt P24723)

Compound | test | setting | how to read | endpoint | result
C=CC(=O)N1Cc2nc(-c3cc(-c4cc(Cl)cnc4Cl)c(F)cc3F)n(-c3ccncn3)c2C1 | cell-free assay | 1 µM |  | inhibition | 1.7%
Cc1cccc(O[C@H]2CCC[C@@H](C(C)CNCc3ccncc3)C2)c1 (relative stereo) | enzyme activity | 1 µM |  | inhibition | 3%
C=CC(=O)Nc1cccc(-c2cnc3[nH]cc(C(=O)NC(C)(C)C)c3n2)c1 | enzyme activity, inhibitor | 0.1 µM |  | inhibition | 2%
O=c1c(-c2ccc(Cl)c(CN3CCOCC3)c2)coc2cc(O)ccc12 | enzyme activity, inhibitor | 1 µM |  | remaining activity | 104%
Cc1cnc2nc1Nc1cccc(c1)COC/C=C/COCc1cc(ccc1OCCN1CCOCC1)N2 | binding | 0.1 µM |  | remaining binding | 100%
O=C=[N][Ru-4]123([n]4c5ccc(O)cc5c5c6c(c7cc(F)c[n+]1c7c54)C(=O)NC6=O)[S+]1CC[S+]2CC[S+]3CC1 (stereo not shown) | enzyme activity | 100 nM, human enzyme, with: 10 µM ATP | reference: untreated | remaining activity | 106%
COc1cc(Nc2nccc(-c3cnn4nc(OC)ccc34)n2)cc(C(F)(F)F)c1 | binding, competition with immobilised ligand | 1 µM |  | remaining binding | 100%
O=C(Cc1ccc(OCc2ccccc2)cc1)NC1(C(=O)O)CCN(C(=O)c2ccc(-c3cccc(Cl)c3)cc2)CC1 | enzyme activity, inhibitor | 10 µM |  | activity vs control | 97%
C=CC(=O)N1CCc2ccc(-n3c(=O)ccc4cnc5ccc(-c6cnn(C)c6)cc5c43)cc21 | KINOMEscan | 1 µM | reference: DMSO control | remaining binding | 90%
NC(=O)[C@@H](O)C[C@H]1CCc2sc3ncnc(O[C@H]4CC[C@H](N5CCOCC5)CC4)c3c21 | enzyme activity, inhibitor | 10 µM |  | inhibition | 10%
COc1ccc(NC(=O)Nc2ccc3c(c2)C(=O)N(C(C)CO)CC(C)C(CN(C)Cc2ccc4c(c2)OCO4)O3)cc1 (stereo not shown) | kinase activity, KinaseProfiler | 0.03 µM, species human | reference: control | remaining activity | 96%
C=CC(=O)N1CCCC(n2c(=O)c3ncccc3n(Cc3ccc(Oc4ccccc4)cc3)c2=O)C1 (stereo not shown) | cell-free assay, competition with immobilised ligand | 1 µM |  | remaining binding | 92%
COCC12C(=O)NC3C4(C(OC)CC1O)C1CC5(O)C(OC)C(O)C(OC(C)=O)(C1C5OC(=O)c1ccccc1)C3(O)C(OC)C24 (stereo not shown) | kinase activity, inhibitor, ProQinase kinase profiling | 25 µM | reference: control | remaining activity | 108% and 105%
